Published values collected from several papers.
Each line is one published result; not all experiments were run side by side. ± marks the error that the study gave.
Slc6a3: Sodium-dependent dopamine transporter (Slc6a3, Rattus norvegicus, UniProt P23977)
Sequence of UniProt P23977 (whole entry, looked up): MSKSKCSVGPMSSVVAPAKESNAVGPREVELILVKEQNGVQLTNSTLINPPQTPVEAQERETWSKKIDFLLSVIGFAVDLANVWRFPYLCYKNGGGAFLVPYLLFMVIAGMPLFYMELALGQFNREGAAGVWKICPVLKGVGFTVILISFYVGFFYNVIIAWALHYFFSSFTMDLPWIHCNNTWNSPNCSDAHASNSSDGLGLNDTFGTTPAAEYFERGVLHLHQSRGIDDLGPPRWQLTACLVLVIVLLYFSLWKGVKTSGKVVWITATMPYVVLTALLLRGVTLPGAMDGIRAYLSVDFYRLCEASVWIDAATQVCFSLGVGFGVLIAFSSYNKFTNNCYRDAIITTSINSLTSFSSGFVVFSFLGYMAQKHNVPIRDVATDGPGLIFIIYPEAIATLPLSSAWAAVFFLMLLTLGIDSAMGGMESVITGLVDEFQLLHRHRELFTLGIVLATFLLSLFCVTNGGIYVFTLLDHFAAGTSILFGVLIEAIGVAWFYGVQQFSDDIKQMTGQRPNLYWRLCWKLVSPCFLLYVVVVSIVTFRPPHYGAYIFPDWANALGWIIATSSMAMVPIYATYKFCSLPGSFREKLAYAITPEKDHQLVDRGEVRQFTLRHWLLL
B1: sequence looked up; chain QEPTDTPVSHDDTIVVTAAEQNLQAPGVSTITADEIRKNPVARDVSKIIRTMPGVNLTGNSTSGQRGNNRQIDIRGMGPENTLILIDGKPVSSRNSVRQGWRGERDTRGDTSWVPPEMIERIEVLRGPAAARYGNGAAGGVVNIITKKGSGEWHGSWDAYFNAPEHKEEGATKRTNFSLTGPLGDEFSFRLYGNLDKTQADAWDINQGHQSARAGTYATTLPAGREGVINKDINGVVRWDFAPLQSLELEAGYSRQGNLYAGDTQNTNSDSYTRSKYGDETNRLYRQNYALTWNGGWDNGVTTSNWVQYEHTRNSRIPEGLAGGTEGKFNEKATQDFVDIDLDDVMLHSEVNLPIDFLVNQTLTLGTEWNQQRMKDLSSNTQALTGTNTGGAIDGVSTTDRSPYSKAEIFSLFAENNMELTDSTIVTPGLRFDHHSIVGNNWSPALNISQGLGDDFTLKMGIARAYKAPSLYQTNPNYILYSKGQGCYACAGGCYLQGNDDLKAETSINKEIGLEFKRDGWLAGVTWFRNDYRNKIEAGYVAVGQNAVGTDLYQWDNVPKAVVEGLEGSLNVPVSETVMWTNNITYMLKSENKTTGDRLSIIPEYTLNSTLSWQAREDLSMQTTFTWYGKQQPKKYNYKGQPAVGPETKEISPYSIVGLSATWDVTKNVSLTGGVDNLFDKRLWRAGNAQTTGDLAGANYIAGAGAYTYNEPGRTWYMSVNTHF
Sequence of UniProt P9WHK7 (whole entry, looked up): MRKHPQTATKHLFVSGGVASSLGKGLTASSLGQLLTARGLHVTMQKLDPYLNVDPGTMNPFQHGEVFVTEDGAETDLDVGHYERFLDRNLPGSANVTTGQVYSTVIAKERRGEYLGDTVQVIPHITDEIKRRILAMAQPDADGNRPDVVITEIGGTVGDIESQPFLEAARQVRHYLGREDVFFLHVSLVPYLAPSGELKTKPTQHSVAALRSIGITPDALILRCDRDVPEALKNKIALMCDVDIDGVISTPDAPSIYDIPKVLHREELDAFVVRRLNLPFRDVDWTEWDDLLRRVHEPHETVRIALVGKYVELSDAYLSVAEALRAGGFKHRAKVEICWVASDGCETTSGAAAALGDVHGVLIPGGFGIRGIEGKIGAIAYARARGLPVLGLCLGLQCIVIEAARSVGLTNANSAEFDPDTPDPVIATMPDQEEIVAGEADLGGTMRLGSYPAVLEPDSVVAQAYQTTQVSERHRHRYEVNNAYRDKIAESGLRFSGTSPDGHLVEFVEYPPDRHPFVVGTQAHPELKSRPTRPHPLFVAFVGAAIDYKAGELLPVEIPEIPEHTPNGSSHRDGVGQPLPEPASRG
Sequence of UniProt Q7RTT9 (whole entry, unmodified, looked up): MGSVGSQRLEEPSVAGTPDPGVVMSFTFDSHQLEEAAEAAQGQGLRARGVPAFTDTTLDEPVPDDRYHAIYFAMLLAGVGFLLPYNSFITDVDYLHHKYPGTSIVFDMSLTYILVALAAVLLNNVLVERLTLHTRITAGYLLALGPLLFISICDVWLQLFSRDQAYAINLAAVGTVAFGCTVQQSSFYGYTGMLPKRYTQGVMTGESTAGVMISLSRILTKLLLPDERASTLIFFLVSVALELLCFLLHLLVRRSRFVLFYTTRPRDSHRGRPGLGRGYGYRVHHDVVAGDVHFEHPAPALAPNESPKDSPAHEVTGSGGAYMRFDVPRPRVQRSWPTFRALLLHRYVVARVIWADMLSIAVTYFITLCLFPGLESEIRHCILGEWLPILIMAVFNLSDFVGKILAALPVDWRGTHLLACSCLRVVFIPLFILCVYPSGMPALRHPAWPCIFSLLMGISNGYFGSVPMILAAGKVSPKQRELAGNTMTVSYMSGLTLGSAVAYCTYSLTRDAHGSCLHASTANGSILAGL
Sequence of UniProt P07711 (whole entry, looked up): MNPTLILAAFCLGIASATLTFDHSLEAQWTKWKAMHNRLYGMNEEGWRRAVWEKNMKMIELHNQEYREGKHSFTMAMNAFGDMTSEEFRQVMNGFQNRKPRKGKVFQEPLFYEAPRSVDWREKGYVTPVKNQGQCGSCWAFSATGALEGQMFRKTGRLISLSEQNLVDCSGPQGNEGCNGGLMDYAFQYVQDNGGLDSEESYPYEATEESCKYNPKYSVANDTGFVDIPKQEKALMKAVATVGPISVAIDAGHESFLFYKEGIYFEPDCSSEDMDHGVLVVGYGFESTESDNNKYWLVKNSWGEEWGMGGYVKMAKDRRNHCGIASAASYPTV

Molecule | target or system | assay | test system | conditions | scale | quantity | value
C#CCCCCOC1=CC(=O)N(C(=O)/C=C/[C@H](C)NC(=O)[C@H](CC(C)C)NC(=O)[C@H](CC(C)C)OC(=O)[C@H]([C@@H](C)CC)N(C)C)C1C (stereo in doubt) | Procathepsin L (CTSL, Homo sapiens, UniProt P07711) | inhibitor | – | – | – | kinact/KI | 3.6e+06 ± 283000 M⁻¹ s⁻¹
CC(N)Cc1ccc2ccoc2c1 (stereo not drawn) | Slc6a3 | [3H]MPP+ release, releaser | rat brain synaptosomes | – | reference: DAT over SERT, higher = more DAT-selective | selectivity ratio | 3.6
Nc1nc2c(ncn2[C@@H]2O[C@H](COP(=O)(O)OP(O)(O)=S)[C@@H](O)[C@H]2O)c(=O)[nH]1 | Saccharomyces cerevisiae | vacuole fusion, inhibitor, in vitro vacuole fusion | – | 0.5 mM, 120 min, 25 °C | – | inhibition | 27%
CC(N)Cc1ccc2occc2c1 (stereo not drawn) | Slc6a3 | [3H]MPP+ release, releaser | rat brain synaptosomes | – | reference: DAT over NET, higher = more DAT-selective | selectivity ratio | 0.67
CCCCC/C=C\C/C=C\C/C=C\C/C=C\CCCC(=O)NCCO | – | uptake, substrate | human healthy brain synaptosomes | 15 min, specific uptake, 37 minus 4 °C | – | Km | 0.802 ± 0.15 µM
CN[C@@](C)(C[18F])C(=O)O | – | – | SCID mouse SK-OV-3 xenograft, lung | 120 min, post injection | – | tissue uptake | 0.9 ± 0.1 %ID/g
B1 | – | loop conformational motion, stopped-flow fluorescence | outer membrane fragments | fluorescein-labelled, first decay phase, together with: ferric enterobactin 200 nM | – | quenching rate constant | 2.32 s⁻¹
CCOCc1nc2c([nH]1)c(N)nc1ccccc12 | human monocyte-derived mononuclear phagocytes | fluorogenic substrate | – | concentration not given, 2 days, together with: TLR ligand maturation | – | proteasome activity | increased
CC[C@H](C)[C@@H]1NC(=O)[C@H](CCCNC(=N)N)NC(=O)[C@H](CC(=O)O)NC(=O)[C@H](CC(C)C)NC(=O)[C@H](CCCCN)NC(=O)[C@H](CC(C)C)NC(=O)CNC(=O)[C@H](Cc2ccccc2)NC(=O)[C@@H](NC(=O)CNC(=O)[C@H](CCCCN)NC(=O)[C@H](CO)NC(=O)[C@H](CC(C)C)NC(=O)CNC(=O)[C@H](CCCCN)NC(=O)[C@H](CCCCN)NC(=O)[C@H](CC(N)=O)NC(=O)[C@H](C)NC(=O)CNC(=O)[C@H](CCCCN)NC(=O)[C@H](Cc2ccc(O)cc2)NC(=O)[C@H](CCCCN)NC(=O)[C@H](CCCNC(=N)N)NC(=O)[C@H](C)NC(=O)[C@H](CC(N)=O)NC(=O)[C@@H]2CCCN2C(=O)[C@H](Cc2c[nH]cn2)NC(=O)[C@H](CCC(=O)O)NC(=O)[C@H](CCC(N)=O)NC(=O)CNC(=O)[C@@H]2CCCN2)CSSC[C@@H](C(=O)O)NC(=O)CNC(=O)[C@H](CC(C)C)NC(=O)CNC(=O)[C@H](CO)NC(=O)[C@H](CCSC)NC(=O)[C@H](CO)NC(=O)CNC1=O | – | item: urine cGMP/creatinine | human patients with achondroplasia, urine | initial 6 months, sigmoid Emax vs AUC(0-t) | – | Emax | 11800 pmol/mg creatinine
C[n+]1ccc(-c2ccccc2)cc1 | SLC29A4 (Homo sapiens, UniProt Q7RTT9, I89M) | uptake, substrate | MDCK expressing YFP-PMAT I89M | 1 min, 37 °C | – | Km | 60.1 ± 23.3 µM
Nc1ncnc2c1ncn2[C@@H]1O[C@H](COP(=O)(O)OP(=O)(O)OP(O)(O)=S)[C@@H](O)[C@H]1O | CTP synthase (pyrG, Mycobacterium tuberculosis, UniProt P9WHK7) | ATP probe labelling, competitor, chemoproteomics | Mycobacterium tuberculosis, lysate | 500 µM | reference: untreated | fold change | 4.67 fold
C=CC(=O)Nc1cc2c(Nc3ccc(F)c(Cl)c3)ncnc2cc1C#CC(C)(C)N1CCN(C)CC1 | NIH3T3 in PANC/NIH microtissues | fibroblast toxicity | – | chronic toxicity, unit not given | reference: AC50 ATP over AC50 NanoLUC, day 7 | therapeutic window | 2.34

A few entries again:
Molecule | target or system | assay | test system | conditions | scale | quantity | value
C#CCCCCOC1=CC(=O)N(C(=O)/C=C/[C@H](C)NC(=O)[C@H](CC(C)C)NC(=O)[C@H](CC(C)C)OC(=O)[C@H]([C@@H](C)CC)N(C)C)C1C (stereo in doubt) | Procathepsin L (CTSL, Homo sapiens, UniProt P07711) | inhibitor | – | – | – | kinact/KI | 3.6e+06 ± 283000 M⁻¹ s⁻¹
CC(N)Cc1ccc2ccoc2c1 (stereo not drawn) | Slc6a3 | [3H]MPP+ release, releaser | rat brain synaptosomes | – | reference: DAT over SERT, higher = more DAT-selective | selectivity ratio | 3.6
